Assay results of several laboratories.
Numbered parts are unrelated; each lists some results of a single study. “And” joins repeats or separate records; there may be more than shown.
Sequence of UniProt Q13043 (whole entry, looked up): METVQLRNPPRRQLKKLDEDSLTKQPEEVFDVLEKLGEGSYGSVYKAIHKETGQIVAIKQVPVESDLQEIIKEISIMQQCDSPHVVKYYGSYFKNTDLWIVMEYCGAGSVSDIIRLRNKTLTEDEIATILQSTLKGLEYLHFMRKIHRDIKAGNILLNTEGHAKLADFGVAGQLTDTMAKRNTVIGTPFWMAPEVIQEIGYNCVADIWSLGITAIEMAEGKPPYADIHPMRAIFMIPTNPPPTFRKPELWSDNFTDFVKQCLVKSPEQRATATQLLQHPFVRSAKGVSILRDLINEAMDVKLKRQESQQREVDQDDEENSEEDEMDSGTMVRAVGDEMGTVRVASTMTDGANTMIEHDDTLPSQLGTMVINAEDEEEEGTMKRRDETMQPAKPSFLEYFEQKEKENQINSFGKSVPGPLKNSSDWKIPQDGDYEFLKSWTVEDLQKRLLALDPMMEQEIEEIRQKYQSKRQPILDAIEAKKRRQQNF
Sequence of UniProt P29320 (whole entry, looked up): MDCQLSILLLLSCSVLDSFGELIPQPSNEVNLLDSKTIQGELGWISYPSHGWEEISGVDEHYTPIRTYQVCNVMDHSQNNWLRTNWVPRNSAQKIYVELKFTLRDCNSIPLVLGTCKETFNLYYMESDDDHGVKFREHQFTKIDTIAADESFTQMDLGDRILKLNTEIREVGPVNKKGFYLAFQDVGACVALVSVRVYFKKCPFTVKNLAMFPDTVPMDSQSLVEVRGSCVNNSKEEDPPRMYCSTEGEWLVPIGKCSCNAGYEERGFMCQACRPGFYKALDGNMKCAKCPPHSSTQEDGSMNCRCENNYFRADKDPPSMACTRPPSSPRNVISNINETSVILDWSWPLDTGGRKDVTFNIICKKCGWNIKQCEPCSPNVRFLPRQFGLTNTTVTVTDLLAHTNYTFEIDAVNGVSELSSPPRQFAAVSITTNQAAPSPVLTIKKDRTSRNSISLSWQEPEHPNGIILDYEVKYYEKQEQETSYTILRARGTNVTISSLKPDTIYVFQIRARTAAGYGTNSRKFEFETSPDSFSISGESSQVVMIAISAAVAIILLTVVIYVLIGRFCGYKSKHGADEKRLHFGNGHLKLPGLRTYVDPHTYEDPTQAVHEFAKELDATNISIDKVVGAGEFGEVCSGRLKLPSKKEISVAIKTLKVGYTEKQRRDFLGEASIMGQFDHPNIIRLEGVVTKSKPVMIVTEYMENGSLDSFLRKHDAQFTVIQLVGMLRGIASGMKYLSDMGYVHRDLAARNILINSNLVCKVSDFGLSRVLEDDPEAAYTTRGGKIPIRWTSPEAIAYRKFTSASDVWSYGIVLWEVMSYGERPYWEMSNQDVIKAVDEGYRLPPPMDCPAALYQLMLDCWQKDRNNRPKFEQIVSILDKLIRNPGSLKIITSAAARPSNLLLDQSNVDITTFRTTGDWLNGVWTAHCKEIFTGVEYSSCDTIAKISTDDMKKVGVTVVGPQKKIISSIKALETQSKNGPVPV
Sequence of UniProt P36894 (whole entry, looked up): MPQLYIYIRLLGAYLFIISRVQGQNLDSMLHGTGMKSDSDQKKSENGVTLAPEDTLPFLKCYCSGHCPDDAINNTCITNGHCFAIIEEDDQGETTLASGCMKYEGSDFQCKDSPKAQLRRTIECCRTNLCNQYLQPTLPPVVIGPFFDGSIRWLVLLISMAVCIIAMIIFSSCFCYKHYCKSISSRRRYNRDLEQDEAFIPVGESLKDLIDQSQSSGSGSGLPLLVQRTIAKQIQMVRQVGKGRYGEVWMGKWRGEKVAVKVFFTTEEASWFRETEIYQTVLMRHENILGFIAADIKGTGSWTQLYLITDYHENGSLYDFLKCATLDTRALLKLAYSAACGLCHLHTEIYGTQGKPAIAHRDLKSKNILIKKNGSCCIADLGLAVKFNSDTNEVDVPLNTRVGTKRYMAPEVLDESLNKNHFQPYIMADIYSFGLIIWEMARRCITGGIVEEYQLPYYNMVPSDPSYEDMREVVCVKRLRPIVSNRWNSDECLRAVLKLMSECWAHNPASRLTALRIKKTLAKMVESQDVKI
Sequence of UniProt P41595 (whole entry, looked up): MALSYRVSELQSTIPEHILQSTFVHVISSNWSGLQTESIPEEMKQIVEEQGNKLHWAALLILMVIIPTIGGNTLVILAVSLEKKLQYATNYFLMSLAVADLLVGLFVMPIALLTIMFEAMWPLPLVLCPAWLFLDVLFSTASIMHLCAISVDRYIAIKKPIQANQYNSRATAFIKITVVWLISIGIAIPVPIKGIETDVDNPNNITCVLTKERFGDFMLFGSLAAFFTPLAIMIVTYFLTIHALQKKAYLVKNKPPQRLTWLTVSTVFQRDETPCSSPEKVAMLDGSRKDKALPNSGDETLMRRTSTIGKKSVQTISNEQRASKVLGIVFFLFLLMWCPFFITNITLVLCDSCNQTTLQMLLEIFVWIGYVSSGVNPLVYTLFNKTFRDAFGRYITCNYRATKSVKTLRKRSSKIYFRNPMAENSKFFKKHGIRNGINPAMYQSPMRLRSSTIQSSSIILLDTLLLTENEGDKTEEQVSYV

Series 1 — cell line: HaCaT; concentration: 100 µM; time: 36 h
`COCCCN1CCC(NC(=O)c2cc(Cl)c(N)c3c2OCC3)CC1` gave a viability of 75.8%.
`N#C[C@@H]1CCCN1C(=O)CNC12CC3CC(CC(O)(C3)C1)C2` has a viability of 88.9%.
For `CC[C@H]1OC(=O)C[C@@H](O)[C@H](C)[C@@H](O[C@@H]2O[C@H](C)[C@@H](O[C@H]3C[C@@](C)(O)[C@@H](O)[C@H](C)O3)[C@H](N(C)C)[C@H]2O)[C@@H](CC=O)C[C@@H](C)C(=O)/C=C/C(C)=C/[C@@H]1CO[C@@H]1O[C@H](C)[C@@H](O)[C@@H](OC)[C@H]1OC`, the viability was 85.2%.
For `COc1ccnc(C[S+]([O-])c2nc3ccc(OC(F)F)cc3[nH]2)c1OC` (centres unmarked), the viability was 60.5%.
`NC1C(O)O[C@H](CO)C(O[C@@H]2O[C@H](CO)C(O[C@@H]3O[C@H](CO)[C@@H](O)[C@H](O)[C@H]3N)[C@H](O)C2N)C1O` (some centres unmarked) has a viability of 92.3%.
With `C=CCN1CCCC1CNC(=O)c1cc2[nH]nnc2cc1OC` (centres unmarked) the viability was 91.4%.
`CCN(CC)CCNC(=O)c1cc(Cl)c(N)cc1OC` gave a viability of 84.7%.
`CC(=O)OCC(=O)[C@H]1CC[C@H]2[C@@H]3CCC4=CC(=O)CC[C@]4(C)[C@H]3CC[C@]12C` gave a viability of 92.1%.

Series 2 — concentration: 1 µM
SMILES: COc1ccc2[nH]c3c4[nH]c5ccc(OC)cc5c4c4c(c3c2c1)C(=O)NC4=O
CDK11A (Homo sapiens, UniProt Q9UQ88); competitive binding panel, item: CDC2L2; reference: vehicle — remaining binding: 91%.
The remaining binding was 86% (EPHA3 (Homo sapiens, UniProt P29320); competitive binding panel; reference: vehicle).
The remaining binding was 73% (ROCK2 (Homo sapiens, UniProt O75116); competitive binding panel; reference: vehicle).
It gave 100% for remaining binding (BMPR1A (Homo sapiens, UniProt P36894); competitive binding panel; reference: vehicle).
For WNK2 (Homo sapiens, UniProt Q9Y3S1); competitive binding panel; reference: vehicle: remaining binding read 66%.
MAP3K3 (Homo sapiens, UniProt Q99759); competitive binding panel; reference: vehicle — remaining binding: 59%.
It gave 94% for remaining binding (CSNK1D (Homo sapiens, UniProt P48730); competitive binding panel; reference: vehicle).
It gave 100% for remaining binding (TEK (Homo sapiens, UniProt Q02763); competitive binding; TIE2).
STK17B (Homo sapiens, UniProt O94768); competitive binding panel, item: DRAK2; reference: vehicle — remaining binding: 2.2%.
It gave 100% for remaining binding (STK4 (Homo sapiens, UniProt Q13043); competitive binding panel, item: MST1; reference: vehicle).

Series 3 — observed: enzyme activity; action: inhibitor; concentration: 77 µM; reference: untreated
Target: DNA polymerase theta, ATPase domain (POLQ, Homo sapiens, UniProt O75417)
Sequence of UniProt O75417 (whole entry, unmodified, looked up): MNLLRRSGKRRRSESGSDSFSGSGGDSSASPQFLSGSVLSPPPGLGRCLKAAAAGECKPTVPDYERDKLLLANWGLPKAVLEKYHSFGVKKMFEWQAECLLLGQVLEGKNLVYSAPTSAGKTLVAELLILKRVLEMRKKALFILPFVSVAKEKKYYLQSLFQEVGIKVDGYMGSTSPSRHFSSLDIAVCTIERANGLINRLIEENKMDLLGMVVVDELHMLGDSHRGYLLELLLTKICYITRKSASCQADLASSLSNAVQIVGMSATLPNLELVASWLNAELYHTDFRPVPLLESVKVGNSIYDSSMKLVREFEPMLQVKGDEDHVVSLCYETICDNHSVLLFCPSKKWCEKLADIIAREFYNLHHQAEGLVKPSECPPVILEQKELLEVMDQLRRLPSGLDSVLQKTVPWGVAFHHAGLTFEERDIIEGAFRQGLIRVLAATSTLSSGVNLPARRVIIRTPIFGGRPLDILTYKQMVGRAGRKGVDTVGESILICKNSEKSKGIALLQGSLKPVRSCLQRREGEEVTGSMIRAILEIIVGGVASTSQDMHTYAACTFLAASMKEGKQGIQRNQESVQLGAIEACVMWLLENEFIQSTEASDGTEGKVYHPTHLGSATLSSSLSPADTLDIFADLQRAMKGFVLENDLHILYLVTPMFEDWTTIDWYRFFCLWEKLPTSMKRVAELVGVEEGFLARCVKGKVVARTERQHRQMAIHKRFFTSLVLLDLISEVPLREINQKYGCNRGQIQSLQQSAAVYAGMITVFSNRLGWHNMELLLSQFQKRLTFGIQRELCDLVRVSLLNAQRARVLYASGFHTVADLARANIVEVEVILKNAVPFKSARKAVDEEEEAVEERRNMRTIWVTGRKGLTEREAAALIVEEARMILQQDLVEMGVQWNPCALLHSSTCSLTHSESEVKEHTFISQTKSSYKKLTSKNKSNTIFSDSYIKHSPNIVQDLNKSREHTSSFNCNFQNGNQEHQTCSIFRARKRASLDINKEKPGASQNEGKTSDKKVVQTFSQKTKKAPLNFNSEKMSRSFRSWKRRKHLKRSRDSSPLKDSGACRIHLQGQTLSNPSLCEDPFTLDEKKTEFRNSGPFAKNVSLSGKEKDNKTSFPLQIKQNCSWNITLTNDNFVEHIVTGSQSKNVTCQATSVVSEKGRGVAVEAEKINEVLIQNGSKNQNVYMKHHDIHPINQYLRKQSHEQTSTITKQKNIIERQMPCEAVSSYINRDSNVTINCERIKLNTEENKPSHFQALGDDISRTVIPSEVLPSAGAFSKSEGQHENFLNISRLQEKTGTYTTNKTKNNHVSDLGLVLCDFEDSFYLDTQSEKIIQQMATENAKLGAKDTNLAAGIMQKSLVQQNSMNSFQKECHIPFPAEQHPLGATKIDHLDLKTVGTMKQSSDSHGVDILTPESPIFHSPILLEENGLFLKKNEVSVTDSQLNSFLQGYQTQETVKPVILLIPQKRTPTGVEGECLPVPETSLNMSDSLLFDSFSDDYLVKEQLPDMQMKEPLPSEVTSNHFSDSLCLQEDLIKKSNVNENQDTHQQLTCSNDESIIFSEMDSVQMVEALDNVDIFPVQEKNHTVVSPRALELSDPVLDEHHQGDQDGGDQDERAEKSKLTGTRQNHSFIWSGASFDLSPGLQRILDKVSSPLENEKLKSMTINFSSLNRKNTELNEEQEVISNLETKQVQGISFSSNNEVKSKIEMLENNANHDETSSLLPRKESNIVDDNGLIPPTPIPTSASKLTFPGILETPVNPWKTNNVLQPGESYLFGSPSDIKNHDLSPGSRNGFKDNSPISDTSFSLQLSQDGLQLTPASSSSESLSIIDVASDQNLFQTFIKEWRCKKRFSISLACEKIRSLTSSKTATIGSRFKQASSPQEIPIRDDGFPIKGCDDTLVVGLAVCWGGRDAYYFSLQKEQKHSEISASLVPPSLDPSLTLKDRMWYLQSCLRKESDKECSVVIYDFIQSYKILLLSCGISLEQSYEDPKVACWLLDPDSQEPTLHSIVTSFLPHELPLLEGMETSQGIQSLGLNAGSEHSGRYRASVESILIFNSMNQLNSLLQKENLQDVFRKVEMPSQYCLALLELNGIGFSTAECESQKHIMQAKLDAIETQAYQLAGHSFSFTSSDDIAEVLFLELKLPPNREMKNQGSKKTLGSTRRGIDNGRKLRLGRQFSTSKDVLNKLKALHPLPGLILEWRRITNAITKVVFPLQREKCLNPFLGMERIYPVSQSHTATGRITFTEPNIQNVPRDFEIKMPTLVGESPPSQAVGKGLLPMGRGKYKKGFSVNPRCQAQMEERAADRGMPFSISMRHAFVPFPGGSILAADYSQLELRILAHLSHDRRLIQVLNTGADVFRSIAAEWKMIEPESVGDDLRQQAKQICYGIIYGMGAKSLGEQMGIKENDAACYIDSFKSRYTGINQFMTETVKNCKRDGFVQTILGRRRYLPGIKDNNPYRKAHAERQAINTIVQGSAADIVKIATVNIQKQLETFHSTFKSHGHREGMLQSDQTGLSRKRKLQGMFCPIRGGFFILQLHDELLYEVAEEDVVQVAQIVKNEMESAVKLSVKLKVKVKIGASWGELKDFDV
`C[N+]1(C)CCC[C@H]1C(=O)[O-]` gave a remaining activity of 100%.
For `N[C@@H](CCC(=O)N[C@@H](CSN=O)C(=O)NCC(=O)O)C(=O)O`, the remaining activity was 108%.
With `CCN(CC)CCNC(=O)c1ccc(NC(C)=O)cc1` the remaining activity was 103%.
For `COc1ccc(Cl)cc1C(=O)NCCc1ccc(S(=O)(=O)NC(=O)NC2CCCCC2)cc1`, the remaining activity was 109% and 99.1% and 92.9%.
`CC(C)NC[C@H](O)COc1ccc(CCOCC2CC2)cc1` gave a remaining activity of 95%.
`CC(C)c1cc(C(=O)N2Cc3ccc(CN4CCN(C)CC4)cc3C2)c(O)cc1O` has a remaining activity of 90.2%.
`C=CC(=O)Nc1cccc(Nc2nc(Nc3ccc(N4CCN(C(C)=O)CC4)cc3OC)ncc2C(F)(F)F)c1` has a remaining activity of 103%.
With `CC(C)/N=c1\cc2n(-c3ccc(Cl)cc3)c3ccccc3nc-2cc1Nc1ccc(Cl)cc1` the remaining activity was 102% and 77%.
With `Cc1cc(C)c(Nc2ccnc(Nc3ccc(C#N)cc3)n2)c(C)c1` the remaining activity was 103%.
For `O=c1cc(-c2ccccc2)[nH]c2nc(Cl)ccc12`, the remaining activity was 99.3%.

Further values, each from its own experiment
The inhibition of `CCOCCn1cc(C(=O)Nc2ccc(-n3nc(-c4cccnc4)cc3C(F)(F)F)cn2)ccc1=O` is reported as -11.7% (5-hydroxytryptamine receptor 2B (HTR2B, Homo sapiens, UniProt P41595); binding, radioligand binding; 10 µM).

A few entries again (series 2):
STK17B (Homo sapiens, UniProt O94768); competitive binding panel, item: DRAK2; reference: vehicle — remaining binding: 2.2%.
It gave 100% for remaining binding (STK4 (Homo sapiens, UniProt Q13043); competitive binding panel, item: MST1; reference: vehicle).
